Measured values gathered from unrelated publications.
Every numbered part comes from another study and shows a few of its results, in no order. Several values in a cell are separate wells, animals, samples, runs or records. pEC50: −log10 of the molar value.

Sample 1 — species: mouse; medium: microsomes or S9; concentration: 2 µM; time: 0.5 h; measurement: remaining compound
CC(O)CC(C)(C)CNC(=O)Nc1cc(CC(C)(C)C)nn1C (centres unmarked): 2.42%
CC(=O)O[C@H](C)[C@@H]1NC(=O)[C@H](CC(C)C)NC1=O: 46.5%
O=C(CCn1ccc2ccc(F)cc21)Nc1nc[nH]n1: 84.3%
Cc1c(C(=O)Cn2nnn(-c3ccccc3)c2=O)sc2ccccc12: 59.9%
O=C(NCc1ccccc1)c1ccc(CN(c2ccccc2)S(=O)(=O)c2ccccc2)cc1: 26.6%

Sample 2 — read-out: binding; technique: radioligand binding; concentration: 10 µM; measurement: inhibition
Target: D(2) dopamine receptor (DRD2, Homo sapiens, UniProt P14416)
Chain of UniProt P14416 (whole entry, looked up): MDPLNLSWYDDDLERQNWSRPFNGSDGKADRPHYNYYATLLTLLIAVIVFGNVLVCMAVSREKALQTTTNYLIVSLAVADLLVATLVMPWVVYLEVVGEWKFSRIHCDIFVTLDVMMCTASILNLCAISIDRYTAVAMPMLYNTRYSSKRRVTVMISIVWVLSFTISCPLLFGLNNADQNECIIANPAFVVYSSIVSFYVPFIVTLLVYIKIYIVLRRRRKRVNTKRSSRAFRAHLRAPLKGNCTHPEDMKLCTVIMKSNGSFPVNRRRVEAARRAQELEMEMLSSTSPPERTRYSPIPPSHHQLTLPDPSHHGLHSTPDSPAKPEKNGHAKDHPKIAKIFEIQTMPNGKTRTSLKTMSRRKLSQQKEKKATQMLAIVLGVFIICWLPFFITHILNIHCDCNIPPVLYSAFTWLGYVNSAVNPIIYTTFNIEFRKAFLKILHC
CN1C(=O)[C@@H](N2CCc3cn(Cc4ccccc4)nc3C2=O)COc2ccccc21: -5.46%
CN([C@@H]1CCc2c(CC(=O)O)c3cc(S(C)(=O)=O)ccc3n2C1)S(=O)(=O)c1ccc(F)cc1: -3.84%
O=C(O)c1cc(-c2ccc(C3CCNCC3)cc2)c2ccc(-c3ccc(C(F)(F)F)cc3)cc2c1: -20.2%
O=C(Nc1ccc(-n2nc(-c3cccnc3)cc2C(F)(F)F)cn1)c1ccc(-c2ccccc2)c(F)c1: -9.24%
CC1=C(C#N)C(c2ccc3c(c2)c(NC(=O)c2ccccc2C)nn3C)C(C#N)=C(C)N1: -13.7%
O=C([C@H]1C[C@H](O)CN1c1ccc(Cl)cc1)N1CC2COCC(C1)N2Cc1ccc(Cl)cc1: -16.5%
CCOC(=O)c1cc2cc(-c3cc(C(=O)NCc4ccc(C(=O)O)cc4)nn3C)ccc2[nH]1: -29%
CN1CCN(C(=O)C(C)(C)c2ccc(C(=O)Nc3cn4cc(-c5ccncc5)ccc4n3)cc2)CC1: 10.8%
CCOCCn1cc(C(=O)Nc2ccc(-n3nc(-c4cccnc4)cc3C(F)(F)F)cn2)ccc1=O: -5.62%
Cc1c(NC(=O)c2cc(C(N)=O)nc3cc(F)ccc23)c(C(F)(F)F)nn1Cc1ccc(C(C)(C)C)cc1: 18%
O=C(Nc1cccnn1)N1CC(CC=Cc2cncc(Oc3ccc(C(F)(F)F)cn3)n2)C1: 13.7%
CNC(=O)c1ccc(Nc2ncc(C(F)(F)F)c(NCc3nccnc3N(C)S(C)(=O)=O)n2)cc1: -33.3%
COCCc1ccc(-c2c(C)nc3c(N4CCOCC4)ccnn23)cn1: -10.5%
C[C@@]1(Cc2ccc(C#N)cc2)C(=O)N(c2cc(Cl)cc(Cl)c2)c2ncc(C(=O)NC3(c4nc(C5CCC5)no4)CC3)n21: 16.4%
COc1cc(-c2cn(C3CCc4ccccc4N(CC(F)(F)F)C3=O)nn2)ccc1-n1ccc(C)n1 (centres unmarked): 7.85%
O[C@]1(C(F)(F)F)CCCC[C@H]1Nc1ccc(F)cc1: -22.1%
CC(=O)Nc1c(F)cc(C(=O)N[C@H]2CC[C@H](O)CC2)cc1O[C@@H](C)c1ccccc1: 25.8%
O=C1c2ccc(Nc3ccc(F)cc3F)cc2CCc2ccc(OC[C@H](O)CO)cc21: 7.19%
O=C(Nc1cccnn1)N1CCC(=Cc2cccc(Oc3ccc(C(F)(F)F)cn3)c2)CC1: 1.84%
CC(=O)c1c(NS(C)(=O)=O)c2cc(-c3ccc(Cl)cc3)c(-c3ccc(Cl)cc3Cl)nc2n(C)c1=O: 2.43%

Sample 3 — mode: agonist; measurement: pEC50
Target: Beta-1 adrenergic receptor (ADRB1, Homo sapiens, UniProt P08588)
Chain of UniProt P08588 (whole entry, looked up): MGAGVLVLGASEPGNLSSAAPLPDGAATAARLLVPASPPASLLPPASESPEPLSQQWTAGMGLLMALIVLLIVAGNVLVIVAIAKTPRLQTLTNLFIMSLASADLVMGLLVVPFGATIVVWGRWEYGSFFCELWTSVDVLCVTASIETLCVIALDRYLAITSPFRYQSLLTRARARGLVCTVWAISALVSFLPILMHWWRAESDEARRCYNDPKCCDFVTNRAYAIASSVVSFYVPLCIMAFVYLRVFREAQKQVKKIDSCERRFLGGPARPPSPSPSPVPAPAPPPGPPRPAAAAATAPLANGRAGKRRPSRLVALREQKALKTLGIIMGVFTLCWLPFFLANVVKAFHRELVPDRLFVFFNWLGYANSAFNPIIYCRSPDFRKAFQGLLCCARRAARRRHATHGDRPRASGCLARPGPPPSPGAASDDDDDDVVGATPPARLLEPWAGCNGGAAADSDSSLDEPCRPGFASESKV
O=c1ccc2cc(O)c(O)cc2o1: ≤ 4.00
CC(CNCCc1ccc(O)c(O)c1)Cc1cccc(O)c1 (centres unmarked): ≤ 4.00
Cc1cc(Cl)ccc1OCC(O)CN1CCOCC1 (centres unmarked): ≤ 4.00
CCn1ncc(NC(=O)Cn2ncc3cc(-c4ccc(N(C)C)cc4)ccc32)n1: ≤ 4.00
COc1ccc(OCC(O)CN2CCC(O)CC2)c(CNCC2(O)CCCCC2)c1 (centres unmarked): ≤ 4.00

Sample 4 — technique: CellTiter-Glo; measurement: viability
SMILES: CO[C@@H]1[C@@H](OC(N)=O)[C@@H](O)[C@H](Oc2ccc3c(O)c(NC(=O)c4ccc(O)c(CC=C(C)C)c4)c(=O)oc3c2C)OC1(C)C
RPE-1 BRCA1-/- PARPi-resistant R3; 25 µM, 6 d: 83.4%
RPE-1 wild type; 25 µM, 6 days; relative to: untreated: 97.6% and 96.1%
UWB1.289 PARPi-resistant clone; 100 µM, 6 days; relative to: untreated: 69.4%
RPE-1 BRCA1-/- PARPi-resistant R4; 150 µM, 6 d: 64.1%
RPE-1 BRCA1-/- PARPi-resistant R4; 200 µM, 6 d: 47.1%

Sample 5 — organism: Sarcocystis neurona; read-out: parasite growth; concentration: 10 µM; time: 96 h; notes: first screen; measurement: inhibition
COc1ccccc1OCC(O)CN1CCN(CC(=O)Nc2c(C)cccc2C)CC1 (centres unmarked): 11.2%
CCN1CCN(C(=O)N[C@@H](C(=O)N[C@@H]2C(=O)N3[C@@H]2SC(C)(C)[C@@H]3C(=O)O)c2ccccc2)C(=O)C1=O: -1.3%
CCCc1c(OCCCCc2nnn[nH]2)ccc(C(C)=O)c1O: -10.5%
CC1(C)O[C@@H]2C[C@H]3[C@@H]4C[C@H](F)C5=CC(=O)C=C[C@]5(C)[C@@]4(F)[C@@H](O)C[C@]3(C)[C@]2(C(=O)CO)O1: 22.9%
CC=CC(=O)N(CC)c1ccccc1C (mixture of isomers): -9.9%
CC1(C)S[C@@H]2[C@H](NC(=O)COc3ccccc3)C(=O)N2[C@H]1C(=O)O: 10%
CN(C)CCc1c[nH]c2ccc(C[C@H]3COC(=O)N3)cc12: 4%
C=CCc1ccc(O)c(-c2ccc(O)c(CC=C)c2)c1: 6.4%
CC(=O)OCC(CCn1cnc2cnc(N)nc21)COC(C)=O: 6%

Some of these lines once more (sample 2):
O=C1c2ccc(Nc3ccc(F)cc3F)cc2CCc2ccc(OC[C@H](O)CO)cc21: 7.19%
COc1cc(-c2cn(C3CCc4ccccc4N(CC(F)(F)F)C3=O)nn2)ccc1-n1ccc(C)n1 (centres unmarked): 7.85%
C[C@@]1(Cc2ccc(C#N)cc2)C(=O)N(c2cc(Cl)cc(Cl)c2)c2ncc(C(=O)NC3(c4nc(C5CCC5)no4)CC3)n21: 16.4%
Cc1c(NC(=O)c2cc(C(N)=O)nc3cc(F)ccc23)c(C(F)(F)F)nn1Cc1ccc(C(C)(C)C)cc1: 18%
